Measurements from different studies.
Every numbered part comes from another study and shows a few of its results, in no order. Several values in a cell are separate wells, animals, samples, runs or records.

Series 1
Target: Spike glycoprotein (Severe acute respiratory syndrome coronavirus 2, UniProt P0DTC2)
Effect on: binding
Technique: BLI
The Kd of `O=c1c(O)c(-c2ccc(O)cc2)oc2cc(O)cc(O)c12` is reported as 33.3 µM.
`CC1(C)CC[C@]2(C(=O)O[C@@H]3O[C@H](CO)[C@@H](O)[C@H](O)[C@H]3O)CC[C@]3(C)C(=CC[C@@H]4[C@@]5(C)CC[C@H](O[C@@H]6O[C@H](C(=O)O)[C@@H](O)[C@H](O)[C@H]6O)C(C)(C)[C@@H]5CC[C@]43C)[C@@H]2C1` has a Kd of 90.4 µM.
For `C[C@@H]1O[C@@H](O[C@H]2C(=O)c3c(O)cc(O)cc3O[C@@H]2c2ccc(O)c(O)c2)[C@H](O)[C@H](O)[C@H]1O`, the Kd was 32.5 µM.

Further values, each from its own experiment
`CC[C@H](C)[C@H](NC(=O)[C@H](CC(C)C)NC(=O)[C@H](Cc1c[nH]c2ccccc12)NC(=O)[C@H](CCC(N)=O)NC(=O)[C@@H](NC(=O)[C@H](Cc1ccccc1)NC(=O)[C@H](C)NC(=O)[C@H](CCCCNC(=O)COCCOCCNC(=O)COCCOCCNC(=O)CC[C@H](NC(=O)CCCCCCCCCCCCCCCCCCC(=O)O)C(=O)O)NC(=O)[C@H](CCC(N)=O)NC(=O)[C@H](C)NC(=O)[C@@H](NC(=O)[C@H](CCCCN)NC(=O)[C@H](CC(=O)O)NC(=O)[C@H](CC(C)C)NC(=O)C(C)(C)NC(=O)[C@@H](NC(=O)[C@H](CO)NC(=O)[C@H](Cc1ccc(O)cc1)NC(=O)[C@H](CC(=O)O)NC(=O)[C@H](CO)NC(=O)[C@@H](NC(=O)[C@H](Cc1ccccc1)NC(=O)[C@@H](NC(=O)CNC(=O)[C@H](CCC(=O)O)NC(=O)C(C)(C)NC(=O)[C@@H](N)Cc1ccc(O)cc1)[C@@H](C)O)[C@@H](C)O)[C@@H](C)CC)[C@@H](C)CC)C(C)C)C(=O)N[C@@H](C)C(=O)NCC(=O)NCC(=O)N1CCC[C@H]1C(=O)N[C@@H](CO)C(=O)N[C@@H](CO)C(=O)NCC(=O)N[C@@H](C)C(=O)N1CCC[C@H]1C(=O)N1CCC[C@H]1C(=O)N1CCC[C@H]1C(=O)N[C@@H](CO)C(N)=O` — result for “adverse events (puncture site pain)”: 0% (healthy subjects, single ascending dose; 8.0 mg).
`Nc1ncnc2c([C@@H]3N[C@H](CO)[C@@H](O)[C@H]3O)c[nH]c12` has an antigen-positive cells of 0.237% and 2.6% (Marburg virus; antibody staining; HeLa, Musoke; 50 µM).
Under “anaemia TEAE, Moderate severity”, `Cn1cnc(Cn2c(=O)[nH]/c(=N\c3cc4cn(C)nc4cc3Cl)n(Cc3cc(F)c(F)cc3F)c2=O)n1` is recorded as 0% (human, severe renal impairment; oral, 375 mg).
For `CC[C@H](C)[C@H](NC(=O)[C@H](CO)NC(=O)[C@@H]1CCCN1C(=O)[C@H](CO)NC(=O)[C@H](CCSC)NC(=O)CNC(=O)CNC(=O)CNC(=O)[C@H](CCCCN)NC(=O)[C@H](CCCCN)NC(=O)[C@H](CC(C)C)NC(=O)[C@H](CC(C)C)NC(=O)[C@H](CC(C)C)NC(=O)CNC(=O)[C@H](CC(C)C)NC(=O)[C@H](CC(C)C)NC(=O)[C@H](CC(C)C)NC(=O)[C@H](CCCCN)NC(=O)[C@H](CCCCN)NC(=O)[C@H](CC(C)C)NC(=O)[C@@H](N)CCCCN)C(=O)N[C@@H](CC(C)C)C(=O)N[C@@H](CCCCN)C(=O)N[C@@H](Cc1c[nH]cn1)C(=O)N[C@@H](Cc1c[nH]c2ccccc12)C(=O)N[C@@H](CO)C(=O)N[C@@H](CCCNC(=N)N)C(=O)N[C@@H](CCC(N)=O)C(=O)O`, “lowest cytotoxic concentration” read greater than 256 µg/mL (HEK-293T; cell death; 24 h, 10% cell death).
`NC1=N[C@@](c2cccc(-c3cncnc3)c2)(c2ccnc(C(F)F)c2)c2cccc(F)c21` gave an inhibition of 0.303% (Replicase polyprotein 1ab, main protease (rep, Severe acute respiratory syndrome coronavirus 2, UniProt P0DTD1); reporter gene (mKate2), inhibitor; 20 µM).

Repeated from above (series 1):
The Kd of `O=c1c(O)c(-c2ccc(O)cc2)oc2cc(O)cc(O)c12` is reported as 33.3 µM.
